# Measured values from different studies.
# Each numbered part is a random draw from the data of one study; scales do not carry over between parts. Values joined by “and” are separate records of one study, mostly repeats; a detail may differ.
# UniProt O14920, sequence (whole entry, looked up): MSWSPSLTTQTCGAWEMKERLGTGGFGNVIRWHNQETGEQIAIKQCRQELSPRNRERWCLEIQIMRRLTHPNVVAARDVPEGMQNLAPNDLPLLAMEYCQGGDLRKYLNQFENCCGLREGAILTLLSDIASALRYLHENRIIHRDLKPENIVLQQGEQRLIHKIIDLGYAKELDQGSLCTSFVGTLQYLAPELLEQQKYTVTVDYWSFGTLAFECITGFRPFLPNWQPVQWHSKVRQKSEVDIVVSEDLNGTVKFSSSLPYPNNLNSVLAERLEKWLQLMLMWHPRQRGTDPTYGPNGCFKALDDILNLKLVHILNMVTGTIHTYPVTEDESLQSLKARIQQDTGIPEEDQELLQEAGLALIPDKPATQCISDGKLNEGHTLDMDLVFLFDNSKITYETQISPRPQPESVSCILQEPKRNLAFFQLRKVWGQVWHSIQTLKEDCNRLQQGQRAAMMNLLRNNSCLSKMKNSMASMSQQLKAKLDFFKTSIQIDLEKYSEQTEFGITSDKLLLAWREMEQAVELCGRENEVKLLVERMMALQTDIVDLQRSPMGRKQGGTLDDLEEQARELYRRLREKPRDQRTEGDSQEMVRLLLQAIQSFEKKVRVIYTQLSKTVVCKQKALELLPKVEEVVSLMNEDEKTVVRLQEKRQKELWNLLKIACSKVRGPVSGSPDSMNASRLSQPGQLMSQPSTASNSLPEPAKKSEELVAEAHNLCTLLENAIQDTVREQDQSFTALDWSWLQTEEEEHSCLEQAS
# UniProt Q15569, sequence (whole entry, looked up): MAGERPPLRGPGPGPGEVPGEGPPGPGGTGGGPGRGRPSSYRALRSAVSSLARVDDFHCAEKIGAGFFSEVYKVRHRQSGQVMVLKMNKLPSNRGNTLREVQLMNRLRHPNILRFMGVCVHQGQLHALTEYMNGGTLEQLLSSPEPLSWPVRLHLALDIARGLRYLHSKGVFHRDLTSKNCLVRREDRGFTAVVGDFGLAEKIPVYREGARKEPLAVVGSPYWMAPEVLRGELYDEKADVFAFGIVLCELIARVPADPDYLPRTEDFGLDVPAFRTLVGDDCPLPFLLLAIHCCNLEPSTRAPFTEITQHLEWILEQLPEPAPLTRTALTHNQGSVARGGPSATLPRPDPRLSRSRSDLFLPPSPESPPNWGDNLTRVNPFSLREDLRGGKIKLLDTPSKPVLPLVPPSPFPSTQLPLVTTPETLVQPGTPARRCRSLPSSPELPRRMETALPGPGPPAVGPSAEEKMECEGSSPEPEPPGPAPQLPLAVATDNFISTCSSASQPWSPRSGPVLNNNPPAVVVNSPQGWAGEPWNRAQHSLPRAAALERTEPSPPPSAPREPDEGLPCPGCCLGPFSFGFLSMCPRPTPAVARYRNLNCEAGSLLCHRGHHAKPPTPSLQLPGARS
# UniProt P42336, sequence (whole entry, unmodified, looked up): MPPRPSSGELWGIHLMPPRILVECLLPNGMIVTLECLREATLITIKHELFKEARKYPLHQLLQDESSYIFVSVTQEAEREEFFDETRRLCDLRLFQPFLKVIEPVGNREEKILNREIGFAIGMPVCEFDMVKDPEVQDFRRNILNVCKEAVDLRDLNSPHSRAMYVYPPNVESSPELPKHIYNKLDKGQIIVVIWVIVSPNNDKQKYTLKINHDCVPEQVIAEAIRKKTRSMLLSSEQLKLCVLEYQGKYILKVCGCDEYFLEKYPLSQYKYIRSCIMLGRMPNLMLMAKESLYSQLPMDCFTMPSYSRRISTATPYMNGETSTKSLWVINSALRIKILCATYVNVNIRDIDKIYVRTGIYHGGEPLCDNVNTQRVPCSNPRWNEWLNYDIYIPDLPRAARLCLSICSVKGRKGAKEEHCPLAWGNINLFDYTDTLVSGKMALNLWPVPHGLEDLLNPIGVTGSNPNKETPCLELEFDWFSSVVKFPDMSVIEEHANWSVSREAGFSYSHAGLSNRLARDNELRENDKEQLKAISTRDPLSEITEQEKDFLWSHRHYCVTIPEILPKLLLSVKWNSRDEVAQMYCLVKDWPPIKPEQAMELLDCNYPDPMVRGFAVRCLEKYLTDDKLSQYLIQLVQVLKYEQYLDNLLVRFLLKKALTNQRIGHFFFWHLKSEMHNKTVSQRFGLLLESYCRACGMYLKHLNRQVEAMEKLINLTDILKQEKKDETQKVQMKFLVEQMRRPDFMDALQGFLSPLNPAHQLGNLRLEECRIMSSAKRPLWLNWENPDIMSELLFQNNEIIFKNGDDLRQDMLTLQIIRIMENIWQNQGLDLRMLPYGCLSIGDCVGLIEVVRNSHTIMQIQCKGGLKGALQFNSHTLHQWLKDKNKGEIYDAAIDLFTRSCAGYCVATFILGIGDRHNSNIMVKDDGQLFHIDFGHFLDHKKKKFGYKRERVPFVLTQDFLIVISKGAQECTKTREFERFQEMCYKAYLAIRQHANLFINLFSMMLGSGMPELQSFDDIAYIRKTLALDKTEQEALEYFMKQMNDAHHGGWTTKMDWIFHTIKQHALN
# UniProt Q8IVW4, sequence (whole entry, looked up): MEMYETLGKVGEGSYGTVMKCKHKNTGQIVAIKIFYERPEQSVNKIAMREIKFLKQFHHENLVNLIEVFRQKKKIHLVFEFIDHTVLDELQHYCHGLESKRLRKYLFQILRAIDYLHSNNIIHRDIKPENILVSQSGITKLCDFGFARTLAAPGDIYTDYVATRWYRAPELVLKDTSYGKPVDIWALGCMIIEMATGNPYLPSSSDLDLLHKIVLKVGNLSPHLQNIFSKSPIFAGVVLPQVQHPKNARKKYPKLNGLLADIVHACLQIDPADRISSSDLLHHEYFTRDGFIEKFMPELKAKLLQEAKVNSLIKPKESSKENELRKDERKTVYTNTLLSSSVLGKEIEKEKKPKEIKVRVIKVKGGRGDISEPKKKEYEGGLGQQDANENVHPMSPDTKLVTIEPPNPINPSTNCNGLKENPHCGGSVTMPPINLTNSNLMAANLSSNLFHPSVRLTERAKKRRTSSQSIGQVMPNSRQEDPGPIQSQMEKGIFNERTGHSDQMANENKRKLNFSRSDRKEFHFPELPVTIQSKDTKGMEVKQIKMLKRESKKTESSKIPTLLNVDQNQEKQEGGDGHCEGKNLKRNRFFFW

# Series 1
# Cell line: mouse MPNST tumor cells
# Method: high-content immunofluorescence imaging
# Item: nuclear SOX9
# Tested at: 10 µM
# Time: 12 h
# Notes: mean of 2 replicates
# Baseline: DMSO control
# Reading: higher = more nuclear SOX9
SMILES,nuclear SOX9 intensity
CCOc1ccc(-n2c(C(C)N(Cc3cccnc3)C(=O)Cc3ccc(OC(F)(F)F)cc3)nc3ncccc3c2=O)cc1 (stereo not drawn),99 % of DMSO
O=C(NCCN1CCOCC1)c1ccc(Cl)cc1,99.8 % of DMSO and 100 % of DMSO
NC(=O)c1ccc(-c2nc(-c3ccccn3)c(-c3ccc4c(c3)OCO4)[nH]2)cc1,107 % of DMSO
N=C(N)N1CCc2ccccc2C1,98.9 % of DMSO

# Series 2
# Cell line: HaCaT
# Tested at: 100 µM
# Time: 36 h
Compound,viability [%]
CCOc1ccc2ccccc2c1C(=O)N[C@@H]1C(=O)N2[C@@H]1SC(C)(C)[C@@H]2C(=O)O,88.8
CCN[C@@H]1C[C@H](N)[C@@H](O[C@H]2OC(CN)=CC[C@H]2N)[C@H](O)[C@H]1O[C@H]1OC[C@](C)(O)[C@H](NC)[C@H]1O,93.8
OCCOc1ccc(/C(=C(/CCCl)c2ccccc2)c2ccccc2)cc1,6.57
O=C(O[C@H]1C[N+]2(CCCOc3ccccc3)CCC1CC2)C(O)(c1cccs1)c1cccs1,93

# Series 3
# Compound: O=C(NC[C@@H]1[C@H]2CN(C(=O)OCc3cc(C(F)(F)F)cc(C(F)(F)F)c3)C[C@@H]12)c1ccc2[nH]nnc2c1
# Read-out: cell-free assay
# Method: competition with immobilised ligand
# Tested at: 1 µM
target,remaining binding [%]
"Tyrosine-protein kinase ABL1, phosphorylated (ABL1, Homo sapiens, UniProt P00519, H396P)",91
"Cyclin-dependent kinase-like 3 (CDKL3, Homo sapiens, UniProt Q8IVW4)",87
"Phosphatidylinositol 4,5-bisphosphate 3-kinase catalytic subunit alpha isoform (PIK3CA, Homo sapiens, UniProt P42336, I800L)",83
"Dual specificity testis-specific protein kinase 1 (TESK1, Homo sapiens, UniProt Q15569)",79
"Inhibitor of nuclear factor kappa-B kinase subunit beta (IKBKB, Homo sapiens, UniProt O14920)",88

# Series 4
# Target: Serine/threonine-protein kinase pim-3 (PIM3, Homo sapiens, UniProt Q86V86)
# Read-out: enzyme activity
# Mode: inhibitor
# Tested at: 0.5 µM
# Baseline: control
SMILES,remaining activity
O=C1NC(=O)C(c2cn(CCCn3ccnc3)c3ccccc23)=C1Nc1ccccc1,97.5%
O=C(CCCc1ccc(-c2ccccc2F)cc1)Nc1ccc(O)cc1,104%
Cc1cccc(-c2[nH]c(C(C)(C)C)nc2-c2ccc3c(c2)OCO3)n1,106%
COc1cc2ncnc(Nc3ccc(Oc4ccccc4)cc3)c2cc1OC,96.9%
OCC(O)CCON=C1C(c2c(O)[nH]c3ccccc23)=Nc2ccccc21 (stereo not drawn),58.5%
O=C(O)c1ccc2c3c1cccc3c(=O)n1c3ccccc3nc21,4.96%
CO[C@H]1C[C@@H]2CC[C@@H](C)[C@@](O)(O2)C(=O)C(=O)N2CCCC[C@H]2C(=O)O[C@H]([C@H](C)C[C@@H]2CC[C@@H](O)[C@H](OC)C2)CC(=O)[C@H](C)/C=C(\C)[C@@H](O)[C@@H](OC)C(=O)[C@H](C)C[C@H](C)/C=C/C=C/C=C/1C,106%
Cc1ccc(NC(=O)c2ccc(CN3CCN(C)CC3)cc2)cc1Nc1nc(-c2cccnc2)cs1,73.7%
NCCNc1ncc(C(N)=O)c(Nc2cccc(C(F)(F)F)c2)n1,52.7%
N#CC(C#N)=C(N)/C(C#N)=C/c1ccc(O)cc1,91.3%
COc1ccc(CNC(=O)Nc2ncc([N+](=O)[O-])s2)cc1,108%
O=C1NC(=O)C(c2cn(CCCO)c3ncccc23)=C1c1cnccn1,16.7%
O=S(=O)(c1cccc2cnccc12)N1CCCNCC1,91.4%
C#Cc1cccc(Nc2ncnc3cc(OCCOC)c(OCCOC)cc23)c1,81.4%
CN(C)c1ccc(C=C2C(=O)Nc3ccccc32)cc1,102%
CC(C)[C@H](CO)Nc1nc(Nc2cc(N)cc(Cl)c2)c2ncn(C(C)C)c2n1,93%

# Series 5
# Compound: CC(C)n1cnc(-c2ccc(F)cc2)c1-c1ncc(C(=O)Nc2ccc(N3CCN(C)CC3)cc2)[nH]1
# Method: Phase 2a trial
# Species: idiopathic pulmonary fibrosis patients
test,setting,patients with adverse events [%]
item: respiratory tract infection,"dose not given, grade 4 maximum intensity, all arms",0
item: reticulocyte count increased,"dose not given, grade 3 maximum intensity, all arms",0
item: weight increased,"30 mg once daily, grade 3 maximum intensity",0
item: neutrophil count increased,"dose not given, grade 3 maximum intensity, all arms",0

# Excerpt of the above (series 4):
SMILES,remaining activity
COc1cc2ncnc(Nc3ccc(Oc4ccccc4)cc3)c2cc1OC,96.9%
OCC(O)CCON=C1C(c2c(O)[nH]c3ccccc23)=Nc2ccccc21 (stereo not drawn),58.5%
O=C(O)c1ccc2c3c1cccc3c(=O)n1c3ccccc3nc21,4.96%
CO[C@H]1C[C@@H]2CC[C@@H](C)[C@@](O)(O2)C(=O)C(=O)N2CCCC[C@H]2C(=O)O[C@H]([C@H](C)C[C@@H]2CC[C@@H](O)[C@H](OC)C2)CC(=O)[C@H](C)/C=C(\C)[C@@H](O)[C@@H](OC)C(=O)[C@H](C)C[C@H](C)/C=C/C=C/C=C/1C,106%
